Results of several laboratories.
Each line is one published result; not all experiments were run side by side.
Read-out: metabolic stability

CCCN(CCC)CCCOc1ccc2c(=O)c3c([nH]c2c1)CCCC3 — half-life (mouse, liver microsomes; 1 µM, pH 7.4): 40.6 min
Cc1ncsc1-c1ccc([C@H](CC(=O)NCCCCCCCCCCC(=O)NCCCn2cc(-c3ccc4c(c3)CCN4C(=O)Cc3cccc(OC(F)(F)F)c3)c3c(N)ncnc32)NC(=O)[C@@H]2C[C@@H](O)CN2C(=O)[C@@H](NC(=O)C2(F)CC2)C(C)(C)C)cc1 — half-life (mouse, liver S9; 1 µM): 18 min
O=C(COc1ccc(N2C(=O)[C@@H]3[C@@H]4C=C[C@@H]([C@H]5C[C@@H]45)[C@@H]3C2=O)cc1)c1cc(Cl)cc(Cl)c1 — half-life (female CD-1 mouse, liver S9): > 206 min
Cc1ncsc1-c1ccc([C@H](CC(=O)N2CCN(c3ccc(C#Cc4ccc(C(=O)N5CCC(n6cc(-c7ccc8c(c7)CCN8C(=O)Cc7cccc(OC(F)(F)F)c7)c7c(N)ncnc76)CC5)cc4)cn3)CC2)NC(=O)[C@@H]2C[C@@H](O)CN2C(=O)[C@@H](NC(=O)C2(F)CC2)C(C)(C)C)cc1 — half-life (mouse, liver S9; 1 µM): > 90 min
Cl.N=C(NN=Cc1ccc(OC(F)(F)F)cc1)NN=Cc1ccc(OC(F)(F)F)cc1 — half-life (mouse, liver microsomes; 1 µM, pH 7.4): 172 min
Cc1ncsc1-c1ccc([C@H](C)NC(=O)[C@@H]2C[C@@H](O)CN2C(=O)[C@@H](NC(=O)CCCN2CCN(CCCC(=O)NCCCn3cc(-c4ccc5c(c4)CCN5C(=O)Cc4cccc(OC(F)(F)F)c4)c4c(N)ncnc43)CC2)C(C)(C)C)cc1 — half-life (mouse, liver S9; 1 µM): 9.8 min
CC(C)n1ncc2c(C(=O)NCC3(F)CNC3)cc(C3CC3)nc21 — half-life (mouse, liver microsomes): 70.1 min
Cc1ncsc1-c1ccc([C@H](C)NC(=O)[C@@H]2C[C@@H](O)CN2C(=S)[C@H](C)NC(=O)CCCCCCCCCCC(=O)N2CCC(n3cc(-c4ccc5c(c4)CCN5C(=O)Cc4cccc(OC(F)(F)F)c4)c4c(N)ncnc43)CC2)cc1 — half-life (mouse, liver S9; 1 µM): 53.5 min
Cl.N=C(N/N=C/c1ccnc2cc(Cl)ccc12)N/N=C/c1ccnc2cc(Cl)ccc12 — half-life (mouse, liver microsomes; 1 µM, pH 7.4): 46.4 min
CC(C)c1cc(C(=O)NCCN2CCCC2)c2cnn(C(C)C)c2n1 — half-life (mouse, liver microsomes): 28.2 min
O=c1c2c([nH]c3cc(Nc4ccc(OC(F)(F)F)cc4)ccc13)CCCC2 — half-life (mouse, liver microsomes; 1 µM, pH 7.4): 17.2 min
Cl.N=C(N/N=C/c1cnc2ccccc2c1)N/N=C/c1cnc2ccccc2c1 — half-life (mouse, liver microsomes; 1 µM, pH 7.4): 4.75 min
O=c1c2c([nH]c3ccc(F)c(Oc4ccc(OC(F)(F)F)cc4)c13)CCCC2 — half-life (mouse, liver microsomes; 1 µM, pH 7.4): 28.3 min
CC(C)n1ncc2c(C(=O)NCC(C)(C)N(C)C)cc(C3CC3)nc21 — half-life (mouse, liver microsomes): 45.6 min
